Literature values as cited in several papers.
Each line is one published result; not all experiments were run side by side. ± marks the error that the study gave.
Chain of UniProt Q7L7X3 (whole entry, looked up): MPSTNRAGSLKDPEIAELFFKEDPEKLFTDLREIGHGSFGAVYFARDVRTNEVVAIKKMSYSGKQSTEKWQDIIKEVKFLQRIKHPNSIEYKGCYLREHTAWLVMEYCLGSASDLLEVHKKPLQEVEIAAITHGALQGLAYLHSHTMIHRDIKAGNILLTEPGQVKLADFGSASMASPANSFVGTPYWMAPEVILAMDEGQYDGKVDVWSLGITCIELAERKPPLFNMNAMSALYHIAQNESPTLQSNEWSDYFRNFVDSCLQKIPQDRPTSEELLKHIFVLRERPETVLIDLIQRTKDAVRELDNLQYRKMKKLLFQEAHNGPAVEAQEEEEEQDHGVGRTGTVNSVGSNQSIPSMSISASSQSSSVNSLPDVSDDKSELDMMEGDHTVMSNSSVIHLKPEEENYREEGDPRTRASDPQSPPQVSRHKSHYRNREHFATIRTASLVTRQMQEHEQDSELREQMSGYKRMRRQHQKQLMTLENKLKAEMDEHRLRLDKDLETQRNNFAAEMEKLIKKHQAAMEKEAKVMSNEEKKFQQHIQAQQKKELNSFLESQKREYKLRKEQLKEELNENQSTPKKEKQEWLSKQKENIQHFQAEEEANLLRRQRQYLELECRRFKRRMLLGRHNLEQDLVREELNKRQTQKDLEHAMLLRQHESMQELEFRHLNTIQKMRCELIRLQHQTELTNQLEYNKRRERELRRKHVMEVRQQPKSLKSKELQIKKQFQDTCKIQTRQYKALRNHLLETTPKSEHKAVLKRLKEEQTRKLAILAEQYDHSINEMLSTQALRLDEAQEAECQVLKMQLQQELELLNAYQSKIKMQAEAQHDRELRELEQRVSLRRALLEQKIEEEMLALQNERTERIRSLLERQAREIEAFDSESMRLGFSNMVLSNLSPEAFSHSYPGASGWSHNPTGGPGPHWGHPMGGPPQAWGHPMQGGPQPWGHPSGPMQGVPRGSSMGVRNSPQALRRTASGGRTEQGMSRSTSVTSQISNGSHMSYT

CC1(C)CCC(CN2CCN(c3ccc(C(=O)NS(=O)(=O)c4ccc(NCC5CCOCC5)c([N+](=O)[O-])c4)c(Oc4cnc5[nH]ccc5c4)c3)CC2)=C(c2ccc(Cl)cc2)C1  Cmax increase (human; dose not given, with: triazole antifungals (CYP3A inhibitors); reference: without triazole): 7.1 fold
Nc1cc(C(F)(F)F)c(-c2nc(N3CCOCC3)nc(N3CCOCC3)n2)cn1  remaining activity (Serine/threonine-protein kinase TAO1 (TAOK1, Homo sapiens, UniProt Q7L7X3); enzyme activity; 10 µM; reference: untreated): 86%
COCCc1ccc(OCC(O)CNC(C)C)cc1 (stereo not shown)  Cmax (human fasted; 50 mg multiple doses, day 5, mean): 19 ng/mL
C[C@@H](Oc1ccc(S(C)(=O)=O)cc1C(=O)N1C[C@@H]2C[C@]2(c2cc(C(F)(F)F)on2)C1)C(F)(F)F  Cmax ratio (human; 25 mg single dose, observed geometric mean, with: rifampicin; reference: with over without rifampicin): 0.37
O=C(O)C[C@H](O)C[C@H](O)/C=C/c1c(C2CC2)nc2ccccc2c1-c1ccc(F)cc1  Cmax increase (healthy human volunteers; dose not given, with: rifampicin; reference: without rifampicin): 4.36 fold
CCN1CCN(Cc2ccc(Nc3ncc(F)c(-c4cc(F)c5nc(C)n(C(C)C)c5c4)n3)nc2)CC1  Cmax increase (healthy human; dose not given, 50% w/w capsule, with: high-fat meal): 24%
COc1cc2c(Oc3ccc4[nH]c(C)cc4c3F)ccnc2cc1OCC1(N)CC1  Cmax steady state (adult human; 12 mg/day continuous): 40 to 80 ng/mL
COc1cc2nccc(Oc3ccc(NC(=O)C4(C(=O)Nc5ccc(F)cc5)CC4)cc3)c2cc1OC  Cmax increase (human; dose not given, high-fat breakfast; reference: fasted): 41%
CNCc1cc(-c2ccccc2F)n(S(=O)(=O)c2cccnc2)c1  Cmax (human; 20 mg, multiple dose): 24.2 ng/mL
C[C@@H](Oc1ccc(S(C)(=O)=O)cc1C(=O)N1C[C@@H]2C[C@]2(c2cc(C(F)(F)F)on2)C1)C(F)(F)F  Cmax increase (human; oral, 25 mg single dose, with: Meal, high-fat, ~1000 kcal; reference: fasted state): 42%
Cc1nsc(-c2nnc3n2CCN(C(=O)c2ccc(F)cc2)[C@@H]3C)n1  Cmax (human; oral, 45 mg single dose, fasted): 453 ng/mL
O=C(O)[C@H]1O[C@@H](Oc2ccc([C@@H]3[C@@H](CC[C@H](O)c4ccc(F)cc4)C(=O)N3c3ccc(F)cc3)cc2)[C@H](O)[C@@H](O)[C@@H]1O  Cmax increase (human, serum; dose not given, with: rifampin, 600 mg, single dose; reference: without rifampin): 2.64 fold
C=CC(=O)N1CCC([C@@H]2CCNc3c(C(N)=O)c(-c4ccc(Oc5ccccc5)cc4)nn32)CC1  Cmax (human patients; oral, 80 mg once daily, day 1): 137 ± 69 ng/mL

A few entries again:
C[C@@H](Oc1ccc(S(C)(=O)=O)cc1C(=O)N1C[C@@H]2C[C@]2(c2cc(C(F)(F)F)on2)C1)C(F)(F)F  Cmax increase (human; oral, 25 mg single dose, with: Meal, high-fat, ~1000 kcal; reference: fasted state): 42%
C=CC(=O)N1CCC([C@@H]2CCNc3c(C(N)=O)c(-c4ccc(Oc5ccccc5)cc4)nn32)CC1  Cmax (human patients; oral, 80 mg once daily, day 1): 137 ± 69 ng/mL
